Measured values collected from several papers.
Each line is one published result; not all experiments were run side by side. ≈ marks a conversion by molar mass, not a printed value.
Organism: Saccharomyces cerevisiae

| Structure (SMILES) | assay | test system | setting | quantity | result |
| --- | --- | --- | --- | --- | --- |
| CCN(CCCS(=O)(=O)O)c1cccc(C)c1 | cell growth, OD600 after 22 h | PfPiT-expressing strain | 22 h, pH 4.3, 30 °C, with: 12 mM NaH2PO4 | IC50 | 3.7 mM |
| CC1=NN(c2cccc(C)c2)C(=O)C1=NNc1ccc(S(N)(=O)=O)cc1 | – | – | 100 µg/mL | glucose uptake | 42.3% |
| CO[C@H]1[C@H](O[C@H]([C@H]2O[C@@H](n3ccc(=O)[nH]c3=O)[C@H](O)[C@@H]2O)[C@H](NCCCNC(=O)[C@@H](NC(=O)[C@@H](NC(=O)N[C@H](C(=O)O)C(C)C)[C@@H]2CCN=C(N)N2)[C@@H](OC(=O)CCCCCCCCCCCCN(O)C(=N)N)C(C)C)C(=O)O)O[C@H](CN)[C@H]1O | alamar blue | BY4742 | – | MIC50 | > 35 µg/mL |
| CC1=NN(c2ccc(Cl)cc2)C(=O)C1=NNc1ccc(S(N)(=O)=O)cc1 | – | – | 100 µg/mL | glucose uptake | 29.4% |
| COC(CNC1=CC2=NCCc3c[nH]c(c32)C1=O)c1c[nH]c2ccccc12 (stereo not drawn) | cell growth, liquid culture | BY4741 | 100 µM, 24 h | inhibition | 42.3% |
| C[C@@H]1[C@H](O)[C@@H](C)/C=C/C=C/C=C/C=C/C=C/C=C/C=C/[C@H](O[C@@H]2O[C@H](C)[C@@H](O)[C@H](N)[C@@H]2O)C[C@@H]2O[C@](O)(C[C@@H](O)C[C@@H](O)[C@H](O)CC[C@@H](O)C[C@@H](O)CC(=O)O[C@H]1C)C[C@H](O)[C@H]2C(=O)O | – | YPD medium | 30 °C | MIC | 2 µg/mL (≈ 2.16 µM) |
| O=C1c2[nH]cc3c2C(=NCC3)c2c(-c3ccc(O)cc3)c[nH]c21 | cell growth, liquid culture | BY4741 | 100 µM, 24 h | inhibition | 0.5% |
| CC(=O)O | cell growth | – | 22 h, pH 4.3 | IC50 | 13 mM |
| OC(Cn1cncn1)(Cn1cncn1)c1ccc(F)cc1F | cell growth, liquid culture | BY4741 | 100 µM, 24 h | inhibition | 90.8% |
| O=C(O)P(=O)(O)O | cell growth, OD600 after 16 h | parental strain (Pho84) | pH 4.3, 30 °C, with: 12 mM NaH2PO4 | IC50 | 34 mM |
| CC1=NNC(=S)NC(=O)C1/N=N/c1ccc(S(N)(=O)=O)cc1 (stereo not drawn) | – | – | 200 µg/mL | glucose uptake | 65.1% |
| Cn1cc2c3c1C(=O)C(NCCc1ccc(O)cc1)=CC3=NCC2 | cell growth, liquid culture | BY4741 | 100 µM, 24 h | inhibition | 5% |

Excerpt of the above:
| Structure (SMILES) | assay | test system | setting | quantity | result |
| --- | --- | --- | --- | --- | --- |
| O=C1c2[nH]cc3c2C(=NCC3)c2c(-c3ccc(O)cc3)c[nH]c21 | cell growth, liquid culture | BY4741 | 100 µM, 24 h | inhibition | 0.5% |
